Measurements gathered from unrelated publications.
Lines come from different studies, so protocols differ. Several values in a cell are separate wells, animals, samples, runs or records. ± marks the error that the study gave.

NC(=O)c1cc(-c2ccco2)ccc1OCCc1cccc(F)c1
CC50 (HepG2; galactose medium; 3 (unit not given)): 56 ± 1 µM

Cc1ccc(N2CCN(C)CC2)cc1C(=O)N[C@H](C)c1cc(-c2cnn(C)c2)nc2ccccc12
viability (Vero E6; 250 µM): 0.136% and 0.952%

Cc1nc2cccc(OCC(C)(C)C(=O)NC(C)C)c2c(N)c1C(=O)[O-].[Na+]
revertant colonies (Salmonella typhimurium; Ames preincubation; TA98; 0.32 mg/plate, added: with rat liver S9): 45 ± 7 colonies/plate

Cc1ccc(OCCN(C)C)cc1C(=O)N[C@H](C)c1cc(-c2cnn(CC(=O)N(C)C)c2)nc2ccccc12
viability (African green monkey cells; 3.906 µM): 96.2%

CC[C@H](C)[C@H]1NC(=O)[C@@H](Cc2ccccc2)N(C)C(=O)[C@H](C)N(C)C(=O)[C@H](CC(C)C)NC(=O)[C@H](Cc2ccccc2)N(C)C(=O)[C@H](C)N(C)C(=O)[C@@H]([C@@H](C)CC)NC1=O
CC50 (HCT-116; CellTiter-Glo ATP; 72 h, 0.1% DMSO): 0.034 ± 0.005 µM

O=C1NC2(CC2)COc2ncc(F)cc2[C@H]2COCCN2c2ccn3ncc1c3n2
serum hepatic lipase activity (Sprague-Dawley rat, male, serum; oral, 20 mg/kg/day, end of recovery, 4-week subacute toxicity): 3.1 ± 0.7 U/L

Nc1nc(Nc2ccc(Cl)c(Cl)c2)nn1S(=O)(=O)c1ccc2ccccc2c1
CC50 (Vero 76): 4.1 µM and 5.9 µM

CC[C@H](C)[C@H]1NC(=O)[C@@H](C)N(C)C(=O)[C@H](C)N(C)C(=O)[C@H](CC(C)C)NC(=O)[C@H](Cc2ccccc2)N(C)C(=O)[C@H](C)N(C)C(=O)[C@@H]([C@@H](C)CC)NC1=O
CC50 (HCT-116; CellTiter-Glo ATP; 72 h, 0.1% DMSO): 0.14 ± 0.013 µM

O=[N+]([O-])c1ccc(-n2nc(-c3ccc(F)cc3)cc2-c2ccc(Cl)cc2)c([N+](=O)[O-])c1
CC50 (Neuro2a; MTT; 48 h): ~1 µM

NC(=O)c1cc(C(F)F)ccc1OCCc1cccc(F)c1
CC50 (HepG2; 3 (unit not given), human): 43 ± 1 µM

CC(C)C[C@@H]1NC(=O)[C@H](Cc2ccccc2)N(C)C(=O)[C@H](C(C)C)NC(=O)[C@@H](C(C)C)NC(=O)[C@@H](C(C)C)NC(=O)[C@@H](Cc2ccccc2)N(C)C(=O)[C@H](C)N(C)C1=O
CC50 (HCT-116; cell viability, CellTiter-Glo ATP; 72 h): > 10 µM

C[C@H](NC(=O)Cc1cc(F)cc(F)c1)C(=O)N[C@@H]1C(=O)N(C)c2ccccc2-c2ccccc21
CC50 (Raji DC-SIGN; cell viability, CellTiter-Glo; 48 h, uninfected): 110 µM

COc1ccc(-c2cc(-c3ccc(F)cc3)nn2-c2ccc([N+](=O)[O-])cc2[N+](=O)[O-])cc1
CC50 (Neuro2a; MTT; 48 h): ~1 µM

CC(C)CC(NC(=O)OCc1ccccc1)C(=O)NC(CC1CCNC1=O)C(=O)C(=O)NC1CC1 (centres unmarked)
CC50 (HCT-8; 5 (unit not given)): > 250 µM

COc1ccccc1-c1n[nH]c2nc(NC3CCN(C(=O)Cc4ccc(F)cc4F)CC3)ncc12
relative abundance (bead binding, competition bead pull-down, item: LINJ.29.0890; Leishmania donovani axenic amastigote extract; 10 µM; reference: vehicle): 1.41

O=C(CCOCC(COCCC(=O)NC(Cc1c(-c2cc(C(=O)O)cc(C(=O)O)c2)[nH]c2c(-c3cc(C(=O)O)cc(C(=O)O)c3)cccc12)C(=O)O)(COCCC(=O)NC(Cc1c(-c2cc(C(=O)O)cc(C(=O)O)c2)[nH]c2c(-c3cc(C(=O)O)cc(C(=O)O)c3)cccc12)C(=O)O)COCCC(=O)NC(Cc1c(-c2cc(C(=O)O)cc(C(=O)O)c2)[nH]c2c(-c3cc(C(=O)O)cc(C(=O)O)c3)cccc12)C(=O)O)NC(Cc1c(-c2cc(C(=O)O)cc(C(=O)O)c2)[nH]c2c(-c3cc(C(=O)O)cc(C(=O)O)c3)cccc12)C(=O)O (centres unmarked)
CC50 (HEp-2; cytotoxicity; 24 (unit not given)): > 100 µM

COc1ccc(NN2CCCC3(C2)Nc2cccnc2N=C3NC2CCCC2)c(C)c1 (centres unmarked)
CC50 (African green monkey cells; 72 (unit not given)): > 70 µM

O=[N+]([O-])c1ccc(-n2nc(-c3ccccc3)cc2-c2ccc(F)cc2)c([N+](=O)[O-])c1
CC50 (Neuro2a; MTT; 48 h): ~50 µM

COc1ccccc1-c1ccc(OCCc2cccc(F)c2)c(C(N)=O)c1
CC50 (HepG2; galactose medium; 3 (unit not given)): 28 ± 17 µM

C[C@H](NC(=O)[C@@H](O)c1cc(F)cc(F)c1)C(=O)N[C@@H]1C(=O)N(C)c2ccccc2-c2ccccc21
CC50 (MEF; cell viability, CellTiter-Glo; 48 h, uninfected): 70.2 µM

Some of these lines once more:
C[C@H](NC(=O)Cc1cc(F)cc(F)c1)C(=O)N[C@@H]1C(=O)N(C)c2ccccc2-c2ccccc21
CC50 (Raji DC-SIGN; cell viability, CellTiter-Glo; 48 h, uninfected): 110 µM

COc1ccc(-c2cc(-c3ccc(F)cc3)nn2-c2ccc([N+](=O)[O-])cc2[N+](=O)[O-])cc1
CC50 (Neuro2a; MTT; 48 h): ~1 µM

CC(C)CC(NC(=O)OCc1ccccc1)C(=O)NC(CC1CCNC1=O)C(=O)C(=O)NC1CC1 (centres unmarked)
CC50 (HCT-8; 5 (unit not given)): > 250 µM
